Experimental data gathered from unrelated publications.
Each numbered part is a random draw from the data of one study; scales do not carry over between parts. Positions count from the first letter of the parent shown.

Set 1 — target: CCND3, cyclin fold, Cln2 fusion (human); technique: yeast growth competition, sequencing; sample: yeast; notes: weak parent motif; relative to: not given; reading: higher = stronger binding; measurement: normalised enrichment score
Parent: RBL1 docking peptide (human); GSAKRRLFGEDPP
Substitution = GSAKPRLFGEDPP [R5P]; value = 0.116
Substitution = GRAKRRLFGEDPP [S2R]; value = 0.127
Substitution = GSSKRRLFGEDPP [A3S]; value = 0.163
Substitution = GSAKRRLFGEDPQ [P13Q]; value = 0.0865
Substitution = GSAKRRCFGEDPP [L7C]; value = 0.152
Substitution = GSALRRLFGEDPP [K4L]; value = 0.0634
Substitution = GSAKRRLFGEDAP [P12A]; value = 0.151
Substitution = GSAKCRLFGEDPP [R5C]; value = 0.13
Substitution = GSVKRRLFGEDPP [A3V]; value = 0.114
Substitution = GSAKARAFGEDPP [R5A L7A]; value = 0.0133
Substitution = GSAKRRLFGEDMP [P12M]; value = 0.0993
Substitution = CSAKRRLFGEDPP [G1C]; value = 0.0877
Substitution = GSARRRLFGEDPP [K4R]; value = 0.211
Substitution = GSAKRRLFGEDDP [P12D]; value = 0.0445
Substitution = DSAKRRLFGEDPP [G1D]; value = 0.107
Substitution = GQAKRRLFGEDPP [S2Q]; value = 0.112
Substitution = GSAKRRDFGEDPP [L7D]; value = 0.119
Substitution = GSAKRRLFGERPP [D11R]; value = 0.114
Substitution = GSEKRRLFGEDPP [A3E]; value = 0.159
Substitution = GSAKRRLFGEDEP [P12E]; value = 0.191
Substitution = GSAKRRLFGEDPS [P13S]; value = 0.0119
Substitution = GSAKRRLFGEHPP [D11H]; value = 0.0538
Substitution = GSAKFRLFGEDPP [R5F]; value = 0.00867
Substitution = GSAKRRWFGEDPP [L7W]; value = 0.162
Substitution = GSAKRRLFGEIPP [D11I]; value = 0.171

Set 2 — technique: DHFR PCA, deep sequencing; sample: yeast; together with: (+)-ABA 710 µM; relative to: wild-type fitted maximum; reading: higher = stronger binding; measurement: relative binding score
Target: ABI1, truncated, D143A, DHFR fusion (Arabidopsis thaliana)
Notes: methotrexate growth selection, single substitutions
Parent: PYL1, truncated, DHFR fusion (Arabidopsis thaliana); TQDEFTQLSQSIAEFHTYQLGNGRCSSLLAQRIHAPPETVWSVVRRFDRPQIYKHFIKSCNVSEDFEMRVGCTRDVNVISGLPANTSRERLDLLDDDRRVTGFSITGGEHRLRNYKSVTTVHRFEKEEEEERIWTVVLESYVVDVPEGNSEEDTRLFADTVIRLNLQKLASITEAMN; partner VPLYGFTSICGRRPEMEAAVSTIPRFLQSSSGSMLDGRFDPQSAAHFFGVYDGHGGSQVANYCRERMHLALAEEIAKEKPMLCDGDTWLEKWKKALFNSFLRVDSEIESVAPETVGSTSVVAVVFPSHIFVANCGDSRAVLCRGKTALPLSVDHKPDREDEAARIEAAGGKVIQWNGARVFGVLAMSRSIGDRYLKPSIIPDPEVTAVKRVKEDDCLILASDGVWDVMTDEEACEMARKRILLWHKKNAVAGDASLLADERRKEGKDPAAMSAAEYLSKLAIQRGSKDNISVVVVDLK
Substitution = R45P; value = -16.8%
Substitution = D96C; value = 82.5%
Substitution = L112D; value = 4.89%
Substitution = S63H; value = 98%
Substitution = R163S; value = 91%
Substitution = N114S; value = 92.9%
Substitution = A13E; value = 97.2%
Substitution = T86P; value = -0.662%
Substitution = P146Y; value = 51.1%
Substitution = L91Q; value = 41.9%
Substitution = I162Y; value = -9.97%
Substitution = T101C; value = 107%
Substitution = V161A; value = 44.5%

Set 3 — technique: aptamer microarray, sandwich; molecule type: DNA with 2'F-ANA; sample: in vitro; concentration: 200 nM; together with: Cy3 exosite-II aptamer, 400 nM; reading: higher = stronger binding; measurement: mean fluorescence intensity; strand: GGTTGGTGTGGTTGG
Target: Prothrombin, mature alpha-thrombin (F2, Homo sapiens, UniProt P00734)
Notes: whole 15-mer aptamer, many near background
Modification = 2'F-ANA at 2 4 5 6 10 15; value = 47.3 a.u.
Modification = 2'F-ANA at 1 2 4 7 8 9; value = 161 a.u.
Modification = 2'F-ANA at 1 2 4 5 6 9 11; value = 64.6 a.u.
Modification = 2'F-ANA at 1 4 5 7 9 10 11 12 14 15; value = 52.5 a.u.
Modification = 2'F-ANA at 2 6 7 9 10 11 12 13; value = 118 a.u.
Modification = 2'F-ANA at 1 3 5 6 14; value = 47.3 a.u.
Modification = 2'F-ANA at 2 3 5 6 9 10 11 12 14; value = 48.5 a.u.
Modification = 2'F-ANA at 6 7 9 10 14 15; value = 116 a.u.
Modification = 2'F-ANA at 1 3 4 5 6 8 9 10 11 12; value = 50.2 a.u.
Modification = 2'F-ANA at 1 2 4 5 8 9 10 13 14 15; value = 47.5 a.u.
Modification = 2'F-ANA at 1 3 5 7 8 9 10 13; value = 42.9 a.u.
Modification = 2'F-ANA at 5 6 8 9 13; value = 85.5 a.u.
Modification = 2'F-ANA at 1 6 7 10 11 12 13 14; value = 44.4 a.u.
Modification = 2'F-ANA at 1 3 4 5 7 8 10 12 13 14; value = 54.4 a.u.
Modification = 2'F-ANA at 2 7 11 13; value = 430 a.u.
Modification = 2'F-ANA at 1 2 4 6 11 14; value = 53.5 a.u.
Modification = 2'F-ANA at 1 3 4 5 6 7 9 11 14; value = 46.6 a.u.
Modification = 2'F-ANA at 3 6 7 13 15; value = 857 a.u.
Modification = 2'F-ANA at 1 2 7 11 13; value = 124 a.u.
Modification = 2'F-ANA at 1 4 8 12 14; value = 62.6 a.u.
Modification = 2'F-ANA at 1 4 5 8 9 10 11 13 14 15; value = 68.5 a.u.
Modification = 2'F-ANA at 1 2 6 11 13 14 15; value = 77.7 a.u.
Modification = 2'F-ANA at 1 2 3 4 7 8 11 13 14; value = 75.3 a.u.
Modification = 2'F-ANA at 2 6 11 12 13; value = 508 a.u.
Modification = 2'F-ANA at 1 2 4 6 7 10 12 14; value = 45.1 a.u.

Set 4 — target: ATF1, bZIP domain (human); technique: DHFR protein complementation; sample: yeast; relative to: wild-type JUN-FOS pair; reading: higher = stronger binding; measurement: binding fitness
Notes: single substitutions, most at no-binding floor
Parent: JUN, bZIP domain (human); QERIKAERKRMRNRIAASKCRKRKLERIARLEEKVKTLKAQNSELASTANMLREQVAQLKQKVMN; partner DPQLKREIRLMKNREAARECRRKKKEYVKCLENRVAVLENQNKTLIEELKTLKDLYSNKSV
Substitution = E44C; value = -1.58 natural log
Substitution = A46R; value = -1.48 natural log
Substitution = K39Y; value = -1.48 natural log
Substitution = L38I; value = -1.53 natural log
Substitution = L38G; value = -1.51 natural log
Substitution = L52T; value = -1.55 natural log
Substitution = A46F; value = -1.56 natural log
Substitution = V56H; value = -1.53 natural log
Substitution = L38K; value = -1.48 natural log
Substitution = A57L; value = -1.49 natural log
Substitution = V35T; value = -1.5 natural log
Substitution = M51W; value = -1.51 natural log
Substitution = E32H; value = -1.45 natural log
Substitution = E44R; value = -1.49 natural log
Substitution = I28E; value = -1.53 natural log
Substitution = E54N; value = -1.5 natural log
Substitution = L45G; value = -1.54 natural log
Substitution = E54D; value = -1.48 natural log
Substitution = A57Q; value = -1.43 natural log

Set 5 — technique: RNA Bind-n-Seq; molecule type: RNA; sample: in vitro; concentration: 365 nM; relative to: no-protein control; reading: higher = stronger binding; measurement: RBNS enrichment (R)
Target: RNA binding protein fox-1 homolog 2, RRM domain, GST-SBP tag (RBFOX2, Homo sapiens, UniProt O43251-10, residues 100-194)
Notes: natural RNA segment, single round, ends assumed
Residues (chain): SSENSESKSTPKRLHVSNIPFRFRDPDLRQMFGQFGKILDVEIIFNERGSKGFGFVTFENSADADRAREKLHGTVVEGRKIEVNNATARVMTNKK
Strand = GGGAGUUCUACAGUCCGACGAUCCCAUCAGUCAUCUAACAACAAAGAUACAUUAUUCACUCAUUGUCACCUCUGAGGCUUCUAUCAUAACAGAAUACUGUGUGUGUAAAGGAAUGAGACUGCUUUUAAAGCAAUGGAAUUCUCGGGUGCCAA; value = 0.582
Strand = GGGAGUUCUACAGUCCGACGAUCUGUUUGCUUUUGAUGUAUCCCUUUGUGAAAUUAGCACUUUUGGGGCCAAUGGAGAAAUGCAGCAUUCACUCUCCCUGUCUUUUCCCCUUCCCUCAGCAGAAACGUGUUUAUGGAAUUCUCGGGUGCCAA; value = 0.474
Strand = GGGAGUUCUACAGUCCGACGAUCGUUUACAAUACAUGUAUAACUUGUAGCUAUAAACAUUUUGUGCCAUUAAAGCUCUCACAAAACUUUUCCUGUCAGUAUAUCAUUUUUCUGUCGCACCUGUUGCCUGGGAGUGGAAUUCUCGGGUGCCAA; value = 0.629
Strand = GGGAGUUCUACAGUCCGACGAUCUAUUACUUGAGUAUUUCUGUCUUUUCACAGAAAAACAUUGGGUUUCUCUCUGGGUUUGGACAUGAAAUGUAAGAAAAGAUUUUUCACUGGAGCAGCUCUCUUAAGGAGAAUGGAAUUCUCGGGUGCCAA; value = 0.787
Strand = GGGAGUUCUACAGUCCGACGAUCACCCCCUUUCCCCACACCUCCCCCUGCUGCUGCUGCCCCAGCGUCUUGACGGGAGCAUUGGCCCCUGAGCCCAGAGAAGCUGGAAGCCUGCCGAAAACAGGAGCAAAUGGUGGAAUUCUCGGGUGCCAA; value = 0.803
Strand = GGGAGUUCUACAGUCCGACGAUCGCUCACACCUGAGACAGGAAGGAGGAAGGGGAUCCAAUAGGAAUAUGGGCCCCGGAGGGGAAGUCAUGCACCCCCAAGCCACCACCCCCCAGCCUUCCACGCACAUCUCCUGGAAUUCUCGGGUGCCAA; value = 1.03
Strand = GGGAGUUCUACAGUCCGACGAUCGGGCGUUUCUUGCCCUCUGCUGACUACUGAUUGGAUUUUACCUAUGGCUUUCUGCAACUUGCUACUCUCUCCCUCUCCAUCCCAUCUUUGCAGCCUCAUAGGGUGGGAUAUGGAAUUCUCGGGUGCCAA; value = 0.522
Strand = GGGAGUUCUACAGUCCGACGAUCUGGGAACUGAAGUCAGAGGCACGAACACUAACUCUUAGCAUUUUUCUGUAGACUUUUUCUUCUGGCCCUUGUCCCUGCCAGCAAAACGCCCCUUUUCUGAUCAUUCGUGCUGGAAUUCUCGGGUGCCAA; value = 1.2
Strand = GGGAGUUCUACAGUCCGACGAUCGUCUGUCUAAUACAUGCCAGAGAUUUUUUUUUCAAAAAGUGCUUUAUCCCUACAAUGUACUGACAGUUCUUACAGUUGAGAUUUGUUCUUUUCAGCUAUUGCUUGUGAAAUGGAAUUCUCGGGUGCCAA; value = 0.711
Strand = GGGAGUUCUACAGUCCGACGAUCUUGGUAUUACUCUGAAACAAAAUUUAAGUUGGAGUUUCAGGGAUUUAGGGAGUAGUUUUCAUUCUACAUGAACUGAGGUAAUAUUAUGGUAACUCCAAUAUUUGGUUAAAUGGAAUUCUCGGGUGCCAA; value = 0.521
Strand = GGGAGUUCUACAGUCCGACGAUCUGCAGAUCCCAGGCUGUGGAUUACGUCACUGCAGGAACUGCUUCUGAAAGGCUUUGGCCUUCCUCAGUGAGCCCUGGAGGGGUUGGCCUUCUCUCCUCCCUGCCUAGAUCUGGAAUUCUCGGGUGCCAA; value = 0.289
Strand = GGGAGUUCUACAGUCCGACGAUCCGCUAUCUAAAGGGAACCCCCAUUUCUGACCCAUUAGUAGUCUUGAAUGUGGGGCUCUGAGAUAAAGGCCCGCAGACAGGGACAAGGGAUGCCCUACCCUUAACCUAGGCUGGAAUUCUCGGGUGCCAA; value = 0.241

Mixed results
Substance = PhoQ, residues 284 288 289 292 302 303 AAQSYM; target = PhoP, residues 12 14 15 18 19 NMSSL (Escherichia coli, UniProt P23836); test = Sort-seq, measured: YFP reporter; test system = E. coli; setting = PhoQ-PhoP variant library, together with: 10 µM Mg2+; how to read = relative to: high Mg2+ state, higher = stronger signaling; measurement = fold induction; value = 9.52

Excerpt of the above (set 4):
Substitution = L52T; value = -1.55 natural log
Substitution = A46F; value = -1.56 natural log
Substitution = V56H; value = -1.53 natural log
Substitution = L38K; value = -1.48 natural log
Substitution = A57L; value = -1.49 natural log
Substitution = V35T; value = -1.5 natural log
Substitution = M51W; value = -1.51 natural log
Substitution = E32H; value = -1.45 natural log
Substitution = E44R; value = -1.49 natural log
Substitution = I28E; value = -1.53 natural log
Substitution = E54N; value = -1.5 natural log
Substitution = L45G; value = -1.54 natural log
Substitution = E54D; value = -1.48 natural log
